# Measured values gathered from unrelated publications.
# Numbered parts are unrelated; each lists some results of a single study. Positions count from the first letter of the parent shown.

# Sample 1
# Target: Histone acetyltransferase KAT6A, winged helix 2, GST fusion (KAT6A, Homo sapiens, UniProt Q92794, residues 85-181)
# Method: protein binding microarray
# Molecule type: double-stranded DNA, one strand shown
# Matrix: in vitro
# Tested at: not given
# Notes: 8-mer, flanks averaged, mean of 2 arrays, mostly near background
# Reference: not given
# Direction: higher = stronger binding
# Residues (chain): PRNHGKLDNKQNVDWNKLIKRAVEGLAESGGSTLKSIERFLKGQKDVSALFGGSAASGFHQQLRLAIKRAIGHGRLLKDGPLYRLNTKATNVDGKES
Sequence,E-score
AGTGTTAC,0.0444
ACTGGAAG,0.0175
ACGTTTCG,-0.092
CCCATAGA,-0.257

# Sample 2
# Target: CCNA2, cyclin fold, Cln2 fusion (human)
# Method: yeast growth competition, sequencing
# Matrix: yeast
# Notes: strong parent motif
# Reference: not given
# Direction: higher = stronger binding
# Starting sequence: CDKN1B docking peptide (human); PSACRNLFGPVDH; partner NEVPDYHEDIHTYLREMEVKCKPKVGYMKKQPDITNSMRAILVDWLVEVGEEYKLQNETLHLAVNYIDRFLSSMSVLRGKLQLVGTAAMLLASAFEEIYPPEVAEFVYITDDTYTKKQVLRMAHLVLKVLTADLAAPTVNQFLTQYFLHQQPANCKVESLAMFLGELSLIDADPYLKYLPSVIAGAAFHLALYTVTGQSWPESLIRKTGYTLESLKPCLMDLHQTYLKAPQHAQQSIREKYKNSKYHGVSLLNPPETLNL
Variant,normalised enrichment score
QSACRNLFGPVDH [P1Q],3.94
PSACRNLDGPVDH [F8D],-0.33
PSACRNLLGPVDH [F8L],0.392

# Sample 3
# Target: Ras GTPase-activating protein-binding protein 1, RRM domain (G3BP1, Homo sapiens, UniProt Q13283)
# Sequence of UniProt Q13283 (whole entry, looked up): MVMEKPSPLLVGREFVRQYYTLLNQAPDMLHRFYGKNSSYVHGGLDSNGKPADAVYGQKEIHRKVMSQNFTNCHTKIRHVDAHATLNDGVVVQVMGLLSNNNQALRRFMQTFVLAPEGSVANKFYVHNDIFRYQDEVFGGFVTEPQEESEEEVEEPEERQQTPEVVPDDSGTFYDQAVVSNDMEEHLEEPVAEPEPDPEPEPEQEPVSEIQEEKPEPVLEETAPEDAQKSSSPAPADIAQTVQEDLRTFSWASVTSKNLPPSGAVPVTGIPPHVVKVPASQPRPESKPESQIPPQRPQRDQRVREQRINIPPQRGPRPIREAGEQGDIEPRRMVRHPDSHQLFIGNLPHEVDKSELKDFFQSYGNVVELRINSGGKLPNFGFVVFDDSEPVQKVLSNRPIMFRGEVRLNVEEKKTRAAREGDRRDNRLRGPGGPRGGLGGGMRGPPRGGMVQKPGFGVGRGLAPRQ
# Method: RNA Bind-n-Seq
# Molecule type: RNA
# Matrix: in vitro
# Tested at: 1 µM
# Notes: whole 134-nt RNA, ends assumed
# Added: 150 mM KCl
# Reference: input library
# Direction: higher = stronger binding
Sequence,log2 enrichment
GGGAGUUCUACAGUCCGACGAUCCCUGUGCUACACAUCGUAUGUACCGAAUCGGGAAAAAAAGGGAAAAAAAGGAAAAAAAGGAAAGUAUUAUGUUACGCCGUUCGGAUCUGCUGGAAUUCUCGGGUGUCAAGG,0.13
GGGAGUUCUACAGUCCGACGAUCCACAGACAACACGCACCCACACAGACACAGAGGGAAGGGGUUGGGAUGGGGACAGGGGGCACAGCAGGGCGGGGUAGGACCCCAGCCCCUUGGAAUUCUCGGGUGUCAAGG,-0.0894
GGGAGUUCUACAGUCCGACGAUCUUUCAGGGCGCCCUGCGUCCGGCAGAGGAGGCGAGCAUCCCGCUCAGGUGAUGAGGAACCCCUCGCGCACCCAGCGCAGAAGGCUGCUGCUGGAAUUCUCGGGUGUCAAGG,-0.648

# Mixed results
Substance,target,assay,test system,setting,scale,endpoint,result
"PhoQ, residues 284 288 289 292 302 303 DDMDFR","PhoP, residues 12 14 15 18 19 GQAIL (Escherichia coli, UniProt P23836)","Sort-seq, measured: YFP reporter",E. coli,"PhoQ-PhoP variant library, added: 10 µM Mg2+","reference: high Mg2+ state, higher = stronger signaling",fold induction,0.851

# A few entries again (sample 3):
Sequence,log2 enrichment
GGGAGUUCUACAGUCCGACGAUCCACAGACAACACGCACCCACACAGACACAGAGGGAAGGGGUUGGGAUGGGGACAGGGGGCACAGCAGGGCGGGGUAGGACCCCAGCCCCUUGGAAUUCUCGGGUGUCAAGG,-0.0894
